Measurements pooled from the literature.
Each line is one published result; not all experiments were run side by side. Several values in a cell are separate wells, animals, samples, runs or records.
Target: Phosphatidylinositol 4,5-bisphosphate 3-kinase catalytic subunit gamma isoform (PIK3CG, Homo sapiens, UniProt P48736)

SMILES | assay | system | setting | scale | endpoint | result
CN1CCN(Cc2ccc(NC(=O)c3cccc(C#Cc4cnc(N)c5ncccc45)c3)cc2C(F)(F)F)CC1 | cell-free assay, competition with immobilised ligand | – | 50 nM | – | remaining binding | 89%
Cc1nc2c(F)cc(-c3nc(Nc4ccc(CNC(=O)CCCCCCC(=O)NO)cc4)ncc3F)cc2n1C(C)C | enzyme activity, inhibitor | – | 1 µM | – | inhibition | 38%
COc1cc(Nc2nccc(-c3cnn4nc(OC)ccc34)n2)cc(C(F)(F)F)c1 | binding, competition with immobilised ligand | – | 1 µM | – | remaining binding | 65%
C=CC(=O)Nc1cccc(-c2cnc3[nH]cc(C(=O)NC(C)(C)C)c3n2)c1 | kinase activity | – | 0.1 µM | – | inhibition | 8% and 20%
CC(=O)N1c2ccc(-c3ccc(CNC(=O)c4cn5cc(-c6cnc(N)nc6)nc(N6CCOCC6)c5n4)cc3)cc2CC[C@@H]1C | KINOMEscan | – | 10 µM | – | remaining binding | 0.4%
CNC(=O)C[C@H](Cc1ccc(C#N)cc1)NC(=O)c1cc(-c2ccc(CN[C@H](C)c3ccc(C)cc3)o2)ccc1Cl | enzyme activity, inhibitor | – | 1 µM | – | activity vs control | 97%
COc1c(Cl)cccc1Nc1c(-c2ccncc2C#C[C@@]2(C)CCCN2C(=O)/C=C/CN(C)C)[nH]c2c1C(=O)NCC2 | cell-free assay, competition with immobilised ligand | – | 3 µM | – | remaining binding | 81%
Cc1cnc2nc1Nc1cccc(c1)COC/C=C/COCc1cc(ccc1OCCN1CCOCC1)N2 | binding | – | 0.1 µM | – | remaining binding | 96%
CN1CCN(Cc2ccc(-c3ccc(CO[C@H]4CCC[C@@H]4NC(=O)c4cc(-c5cnn(C)c5)cnc4N)cc3)cc2)CC1 | enzyme activity, inhibitor | – | 0.1 µM | – | inhibition | 11%
CN1CC[C@@H](COc2cnc(C#N)cc2-c2ccn3nc(NC(=O)C4CC4)cc3c2)C1 | enzyme activity, inhibitor | – | 1 µM | – | inhibition | -1%
Nc1ncc2c(n1)-c1c([nH]c3ccc(C4=CCOCC4)cc13)CCC2 | binding, competition with immobilised ligand | – | 1 µM | – | remaining binding | 61%
CCN1CCN(Cc2ccc(C(=O)Nc3ccc(C)c(NCc4cnc5[nH]ccc5c4OC)c3)cc2C(F)(F)F)CC1 | binding, competition with immobilised ligand | – | 1 µM | – | remaining binding | 100%
CNC1C[S+]2CC[S+]3CC[S+](C1)[Ru-4]321([N]=C=S)[n]2c3ccc(OC)cc3c3c4c(c5cc(F)c[n+]1c5c32)C(=O)NC4=O (stereo not drawn) | KinomeScan | – | 0.1 µM | baseline: untreated | remaining binding | 100%
CC(=O)c1cnc(N)nc1N1CC[C@H]1c1nn2ccc(Cl)c2c(=O)n1-c1ccccc1 | KiNativ | intact human PBMC | 0.1 µM, 1 h | – | target engagement | 67.9%
CC(C)=CC1OC(C)(C)C2C=C3C(=O)C(Cl)=CC(O)C3C3C(O)C4OC4C(=O)C132 (stereo not drawn) | cell-free assay, competition with immobilised ligand | – | 10 µM | – | remaining binding | 87%

For quick reference, copied from above:
SMILES | assay | system | setting | scale | endpoint | result
CN1CC[C@@H](COc2cnc(C#N)cc2-c2ccn3nc(NC(=O)C4CC4)cc3c2)C1 | enzyme activity, inhibitor | – | 1 µM | – | inhibition | -1%
